Results gathered from unrelated publications.
Every numbered part comes from another study and shows a few of its results, in no order. Positions count from the first letter of the parent shown.

Study 1
Target: Histone acetyltransferase KAT6A, winged helix 2, GST fusion (KAT6A, Homo sapiens, UniProt Q92794, residues 85-181)
Technique: protein binding microarray
Molecule type: double-stranded DNA, one strand shown
Medium: in vitro
Concentration: not given
Notes: 8-mer, flanks averaged, mean of 2 arrays, mostly near background
Reference: not given
Direction: higher = stronger binding
Measurement: E-score
Target sequence (chain): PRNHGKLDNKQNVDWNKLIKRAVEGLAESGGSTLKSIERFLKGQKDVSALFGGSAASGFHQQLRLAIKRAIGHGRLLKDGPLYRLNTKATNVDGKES
AGTAGTGG: -0.0922
ACAACTAT: -0.137
AGTTAAGC: -0.0662
GCTTGTTA: -0.0426
AACGTGCG: -0.0672
GTGACCGA: -0.00477
ATATGCCG: 0.101
ACGATTAG: -0.0144
GGGGGAAA: 0.112
AAAGCACT: 0.0932
GGCTTTAC: -0.0887
ATGAAGGG: -0.0736
ATATTAAC: 0.134
CTCTGAAA: 0.00073
CACGTGGC: -0.0846
CCTCTTGC: 0.0238
AAAGGGAT: -0.0826
CAAACAAC: 0.141
CTTCCCAA: -0.0487
CTCTATTA: -0.0808
AGAGAAAA: 0.132
CGCCCCCC: -0.00089
ACAACATG: 0.0543

Study 2
Target: CCNB1, cyclin fold, Cln2 fusion (human)
Technique: yeast growth competition, sequencing
Medium: yeast
Notes: weak parent motif
Reference: not given
Direction: higher = stronger binding
Measurement: normalised enrichment score
Starting sequence: AKAP12 docking peptide (human); GSPLKKLFTSTGL
GSPLKKLLTSTGL [F8L]: -0.217
GSPLAKAFTSTGL [K5A L7A]: -0.577
GSALKKLFTSTGL [P3A]: 1.01
GSPLKKAFTSTGL [L7A]: -0.451
GSPLRKLFTSTGL [K5R]: 0.0541
GSPLKKLFTSAGL [T11A]: -0.973
GSPLKKLFTATGL [S10A]: 0.856
GSPLKKLFTSTAL [G12A]: -0.659
GAPLKKLFTSTGL [S2A]: 0.842
GSPLKKLFASTGL [T9A]: 0.525

Study 3
Target: ABI1, truncated, D143A, DHFR fusion (Arabidopsis thaliana)
Technique: DHFR PCA, deep sequencing
Medium: yeast
Notes: methotrexate growth selection, single substitutions
Added: (+)-ABA 4.8 µM
Reference: wild-type fitted maximum
Direction: higher = stronger binding
Measurement: relative binding score
Starting sequence: PYL1, truncated, DHFR fusion (Arabidopsis thaliana); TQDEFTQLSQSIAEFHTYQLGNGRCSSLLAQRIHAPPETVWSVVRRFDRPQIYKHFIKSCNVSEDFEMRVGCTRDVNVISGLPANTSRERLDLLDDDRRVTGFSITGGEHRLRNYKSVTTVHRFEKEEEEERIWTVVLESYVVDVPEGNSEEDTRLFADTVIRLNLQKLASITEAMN
I57T: -5.72%
L91H: -18%
N149E: 12.2%
E131H: 84%
T39E: 57.1%
V145L: 25.3%
E64T: 67.2%
E147S: 62.1%
K54W: 3.29%
Y53D: -9.1%
E89W: -5.09%
R24N: 45.5%
E174S: 35.1%
E131L: 71.5%
R113D: 26.8%
P83I: 13.1%
L20C: 80.6%
T119Q: 46.4%
N61R: 78.3%
I172F: 37.2%
V100P: -10.6%
L112H: -13.7%
R74V: -6.54%
V161R: -7.75%
K54P: 1.51%

Study 4
Target: Prothrombin, mature alpha-thrombin (F2, Homo sapiens, UniProt P00734)
Technique: aptamer microarray, sandwich
Molecule type: DNA with 2'F-ANA
Medium: in vitro
Concentration: 200 nM
Notes: whole 15-mer aptamer, many near background
Added: Cy3 exosite-II aptamer, 400 nM
Direction: higher = stronger binding
Measurement: mean fluorescence intensity
Oligonucleotide: GGTTGGTGTGGTTGG
2'F-ANA at 4 5 7 8 11 12 13 14: 55.3 a.u.
2'F-ANA at 2 5 6 7 8 12 13 14: 47.6 a.u.
2'F-ANA at 1 2 5 8 9 10: 47.1 a.u.
2'F-ANA at 1 5 6 7 13 14 15: 46.5 a.u.
2'F-ANA at 2 5 7 8 10 11 13 14 15: 48 a.u.
2'F-ANA at 1 2 6 7 8 11 12 13 14: 77 a.u.
2'F-ANA at 1 2 4 7 8 10 11 14 15: 54.1 a.u.
2'F-ANA at 2 5 7 8 9 14: 60.3 a.u.
2'F-ANA at 1 6 12 13 15: 325 a.u.
2'F-ANA at 3 4 6 10 11 13 14: 150 a.u.
2'F-ANA at 2 4 5 6 7 13 14: 51.8 a.u.
2'F-ANA at 2 3 5 7 8 9 11 12: 199 a.u.
2'F-ANA at 1 4 8 9 10 11 13 14 15: 88.7 a.u.
2'F-ANA at 3 5 7 8 12: 304 a.u.
2'F-ANA at 4 6 7: 399 a.u.
2'F-ANA at 5 7 9 10 12 14 15: 47 a.u.
2'F-ANA at 1 4 5 8 10 11 12 13 14 15: 44.2 a.u.
2'F-ANA at 2 3 4 5 7 8 10 11 13 14 15: 49.9 a.u.
2'F-ANA at 1 3 4 6 7 8 9 10 11 14 15: 56.1 a.u.
2'F-ANA at 1 2 6 7 8 9 15: 160 a.u.
2'F-ANA at 1 3 6 9 10 11 12 13 14: 79.6 a.u.
2'F-ANA at 1 6 7 8 14: 66.2 a.u.
2'F-ANA at 3 4 5 6 8 10 13: 51 a.u.
2'F-ANA at 2 4 5 6 7 10 12 13: 49.7 a.u.

Study 5
Target: JDP2, bZIP domain (human)
Technique: DHFR protein complementation
Medium: yeast
Notes: single substitutions, most at no-binding floor
Reference: wild-type JUN-FOS pair
Direction: higher = stronger binding
Measurement: binding fitness
Starting sequence: JUN, bZIP domain (human); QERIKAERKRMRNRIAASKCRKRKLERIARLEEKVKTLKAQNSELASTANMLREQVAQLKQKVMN; partner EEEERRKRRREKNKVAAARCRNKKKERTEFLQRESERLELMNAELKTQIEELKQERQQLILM
S43G: 0.333 natural log
Q41H: 0.198 natural log
E44H: 0.244 natural log
Q55G: 0.175 natural log
T37F: 0.3 natural log
K39F: 0.199 natural log
Q41P: -1.12 natural log
E33T: 0.266 natural log
L52S: -0.743 natural log
T48D: 0.271 natural log
T48P: -1.11 natural log
A40K: 0.313 natural log
E44S: 0.213 natural log
E32Q: 0.162 natural log
K34C: 0.266 natural log
E54W: 0.0345 natural log
E32P: 0.0602 natural log
E44V: 0.239 natural log

Study 6
Target: RNA binding protein fox-1 homolog 2, RRM domain, GST-SBP tag (RBFOX2, Homo sapiens, UniProt O43251-10, residues 100-194)
Technique: RNA Bind-n-Seq
Molecule type: RNA
Medium: in vitro
Concentration: 365 nM
Notes: natural RNA segment, single round, ends assumed
Reference: no-protein control
Direction: higher = stronger binding
Measurement: RBNS enrichment (R)
All sequences stand within: GGGAGUUCUACAGUCCGACGAUC … UGGAAUUCUCGGGUGCCAA
Target sequence (chain): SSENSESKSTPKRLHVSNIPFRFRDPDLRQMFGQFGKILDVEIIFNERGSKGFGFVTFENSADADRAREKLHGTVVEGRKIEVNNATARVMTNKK
AAGCAAAGUCACUUCUCCAUCACAACCAGAUUUGAGGCUGGUUUUGAUGGCUGGGUCCUUGGGCCUGGCCAGUCUUCCUCUUAGCCUCUGGAUCUAGAAGGGACCAUAAG: 0.235
CAUUAACUGGCCAGCUCCUCUGAUUUCUGCAGCAUCGCAACAGGUUCGAAGAUGGGUUGUGGCUGGGUAUUCCCUCCCAUGGUGUUUCCUCUGGGAUGCUCUUCAUUAUC: 0.548
UAAAAGUACAAGCCAGUGCUUUGUCUUAGUAGUUUUAAGAAAUUAAAGCAAACAGACUUAAGUUUCCUUGUAUUGAAGAUAACCUAUGACUGUAUGUUUUGCAUUCCUAG: 0.463
GCAGUCAACUCCAUGCUGUGCAUGUUUCCCACCCCGUGCCUUAGAAGCUGAAGGUGCUUUUUCAUCAGAACCUUAACAUGGCUGUUGAUGGUACCCUGGCUGCAGCCCAG: 2.15
CAUCCACUACCAUGUGCACUGACUGGCCUCAUUUUAUGAAGGAAGAGACAGGACCAGAGAGGCGAUGUCACACAGCCAGUGAUGUCAGGACAUAAAUUCAGAGUGGCUGG: 0.278
AGAGCCUUGAUUUUCCUGGUCAGGGUGAAGUUCCCUGUGUGUCUGUAAAAUAUGAACAAGGAUUCAUGAUUUGUAAAUGCUGUUUAUUUAUUGAUUGCUUCUUUCCAAAA: 1.14
UUAUGGAUUUGUGACUUUGGCAUGCAGAAGACAAGAGAGUGGUUAAGUGGAUCUUAUCAUUACUGUGAGUGUGAGACACACACACAUACACAACACACUGUAUGUGCAUA: 0.545
GAAGAGCCAGCAGUUGAGGCUCCUCAGUUUUAGUGCUGAAAUAAUAAACAGUGACAGGUCAACAGUAUCCUUAAUCUGUCUGAGUGUUCCUCCGCCUGGGGUUGGUGUGG: 1.34
AUGGAGGCAGCGUGUACACAUCGUCUUGAGUUUACGUUAUGACAUGGUUUAUUUUUAGUGCUAUUUUGUUAUAUGAUUGCCAUUGAAAAUAAUAAAAAGAAUGUUGGUUU: 0.293
UAGACCACUGUGGACUCUAAACUGCACUUGUCUCUCUCAUUUCCUUCAAAUAAUGAUCAAUGCUAUUUCAGUGAGCAAACUGUGAAAGGGGCUUUGGAAAGAGUAGGAGG: 0.676
CCCUGGCAGCCAUGUUUAGGAAACACAGUAUACCCACUCCCUGCACCACCAGACACGUGCCCACAUCUGUCCCACUCUGGUCCUCGGGGGCCACUCCACCCUUAGGGAGC: 0.439
UUUGAAACAGCAUUGUGACCACCAGGACAUCAUCGUAAAGUCUGUCUUGAAGGUGUUCCCCACCCCGCCCAGGGGCUUGCACUUGGAGGACUACAGCACACCUGGUUUCC: 0.424

A few entries again (study 1):
CAAACAAC: 0.141
CCTCTTGC: 0.0238
AAAGCACT: 0.0932
CACGTGGC: -0.0846
ATATTAAC: 0.134
ATATGCCG: 0.101
ACAACATG: 0.0543
CTCTGAAA: 0.00073
AAAGGGAT: -0.0826
GTGACCGA: -0.00477
AGTTAAGC: -0.0662
